Published values pooled from the literature.
Numbered parts are unrelated; each lists some results of a single study. Numbers after ± are the reported error.

Block 1 — effect on: enzyme activity; mode: inhibitor; tested at: 0.5 µM; baseline: control; quantity: remaining activity
Compound: Nc1nc(Nc2ccc(S(N)(=O)=O)cc2)nn1C(=O)c1c(F)cccc1F
Serine/threonine-protein kinase DCLK2 (DCLK2, Homo sapiens, UniProt Q8N568): 85.3%
Mitogen-activated protein kinase 14 (MAPK14, Homo sapiens, UniProt Q16539): 97.8%
Misshapen-like kinase 1 (MINK1, Homo sapiens, UniProt Q8N4C8): 98.1%
Mitogen-activated protein kinase 11 (MAPK11, Homo sapiens, UniProt Q15759): 94%
Vascular endothelial growth factor receptor 2 (KDR, Homo sapiens, UniProt P35968): 64.6%
Hepatocyte growth factor receptor (MET, Homo sapiens, UniProt P08581): 75.3%
G protein-coupled receptor kinase 4 (GRK4, Homo sapiens, UniProt P32298): 94.7%
Dual specificity protein kinase CLK3 (CLK3, Homo sapiens, UniProt P49761): 65.8%
Dual specificity protein kinase CLK4 (CLK4, Homo sapiens, UniProt Q9HAZ1): 41.6%
Mitogen-activated protein kinase 1 (MAPK1, Homo sapiens, UniProt P28482): 98.4%
Discoidin domain-containing receptor 2 (DDR2, Homo sapiens, UniProt Q16832): 113%
Serine/threonine-protein kinase MRCK beta (CDC42BPB, Homo sapiens, UniProt Q9Y5S2): 96%
MAP/microtubule affinity-regulating kinase 4 (MARK4, Homo sapiens, UniProt Q96L34): 48%
Serine/threonine-protein kinase Nek3 (NEK3, Homo sapiens, UniProt P51956): 92.6%
Serine/threonine-protein kinase PLK3 (PLK3, Homo sapiens, UniProt Q9H4B4): 91.3%
Rho-associated protein kinase 1 (ROCK1, Homo sapiens, UniProt Q13464): 42.6%
Cyclin-dependent kinase 9, with cyclin K (CDK9, Homo sapiens, UniProt P50750): 27.4%
Tyrosine-protein kinase TXK (TXK, Homo sapiens, UniProt P42681): 95.8%
Ribosomal protein S6 kinase alpha-4 (RPS6KA4, Homo sapiens, UniProt O75676): 90.2%
Calcium/calmodulin-dependent protein kinase type IV (CAMK4, Homo sapiens, UniProt Q16566): 96.8%
Calcium/calmodulin-dependent protein kinase type 1B (PNCK, Homo sapiens, UniProt Q6P2M8): 107%

Block 2 — host: mouse; sample: microsomes or S9; tested at: 2 µM; time: 0.5 h; quantity: remaining compound
CCn1ccc(C(=O)Nc2cccn3ncnc23)n1: 0.13%
O=c1[nH]cnc2c1sc1nc(-c3ccccc3)cc(-c3ccccc3)c12: 49.8%
COc1cc(=O)n(-c2ccccc2)cc1C(=O)N1CC(S(=O)(=O)c2nccn2C)C1: 99.4%
CC1(C)CON(Cc2cc(-c3ccccc3)sc2Cl)C1=O: 16.2%
CCOc1cc(=O)n2c(c1C(=O)Nc1cc(Cl)ccc1OC)CCCC2: 13.5%

Block 3 — method: competition with immobilised ligand; tested at: 1 µM; quantity: remaining binding
SMILES: CCc1ccccc1C(=O)Nc1n[nH]c2c(C)c(F)c(C3C(C#N)=C(C)N(C)C(C)=C3C#N)cc12
Serine/threonine-protein kinase DCLK3 (DCLK3, Homo sapiens, UniProt Q9C098); cell-free assay: 82%
Tyrosine-protein kinase ABL1, non-phosphorylated (ABL1, Homo sapiens, UniProt P00519, H396P); cell-free assay: 95%
Phosphatidylinositol 4-phosphate 5-kinase type-1 gamma (PIP5K1C, Homo sapiens, UniProt O60331); binding: 56%
Dual specificity tyrosine-phosphorylation-regulated kinase 1A (DYRK1A, Homo sapiens, UniProt Q13627); cell-free assay: 100%
RAF proto-oncogene serine/threonine-protein kinase (RAF1, Homo sapiens, UniProt P04049); cell-free assay: 63%

Block 4 — mode: agonist; quantity: EC50
Target: Beta-1 adrenergic receptor (ADRB1, Homo sapiens, UniProt P08588)
CCc1nc(Nc2cccc(C(O)CO)c2)c2ccsc2n1 (centres unmarked): ≥ 100 µM
CCN(CC)C(=O)c1cc(-c2cnc(C(C)C)nc2)nc2c(C)c(C)ccc12: ≥ 100 µM
COc1ccc(Cc2nnc(SCc3cc(=O)oc4ccc5ccccc5c34)o2)cc1: ≥ 100 µM
c1ccc(-c2nc3c(c(N4CCNCC4)n2)CCC3)cc1: 3.55 µM
Cc1cc(F)ccc1-c1n[nH]c2ncc(-c3cnn(C)c3)nc12: ≥ 100 µM
COc1cc(CNCCOc2ccccc2)ccc1OCC(O)CN1CCOCC1 (centres unmarked): ≥ 100 µM
O=C(NCC(O)CO)c1ccc(OC2CCN(CCc3ccccc3)CC2)cc1 (centres unmarked): ≥ 100 µM

Block 5 — quantity: remaining activity
SMILES: COc1cc(C(=O)N2CCC(N3CCN(C)CC3)CC2)ccc1Nc1ncc2c(n1)N(C)c1ccccc1C(=O)N2C
HIPK2; kinase activity; 10 µM: 86 ± 2%
MEKK1; kinase activity; 1 µM: 87 ± 2%
GSK3B; kinase activity; 10 µM: 95 ± 3%
Serine/threonine-protein kinase PLK1 (PLK1, Homo sapiens, UniProt P53350); 1 µM: 73 ± 5%
IR; kinase activity; 10 µM: 103 ± 3%
SRC; kinase activity; 10 µM: 99 ± 2%

A few entries again (block 5):
Serine/threonine-protein kinase PLK1 (PLK1, Homo sapiens, UniProt P53350); 1 µM: 73 ± 5%
HIPK2; kinase activity; 10 µM: 86 ± 2%
MEKK1; kinase activity; 1 µM: 87 ± 2%
IR; kinase activity; 10 µM: 103 ± 3%
SRC; kinase activity; 10 µM: 99 ± 2%
